Experimental data pooled from the literature.
Each numbered part is a random draw from the data of one study; scales do not carry over between parts. “And” joins repeats or separate records; there may be more than shown.
UniProt Q96SW2, sequence (whole entry, looked up): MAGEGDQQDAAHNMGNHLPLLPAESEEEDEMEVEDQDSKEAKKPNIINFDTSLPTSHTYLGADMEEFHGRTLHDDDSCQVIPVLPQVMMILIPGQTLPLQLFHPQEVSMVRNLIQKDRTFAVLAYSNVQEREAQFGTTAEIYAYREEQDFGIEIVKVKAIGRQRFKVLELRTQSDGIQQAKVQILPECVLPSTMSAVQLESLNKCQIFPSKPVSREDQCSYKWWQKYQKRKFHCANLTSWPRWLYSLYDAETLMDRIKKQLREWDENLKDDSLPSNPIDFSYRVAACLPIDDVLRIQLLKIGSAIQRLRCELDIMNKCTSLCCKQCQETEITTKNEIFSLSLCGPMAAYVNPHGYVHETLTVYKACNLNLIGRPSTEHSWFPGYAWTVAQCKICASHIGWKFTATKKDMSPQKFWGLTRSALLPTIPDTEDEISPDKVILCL
UniProt O43353, sequence (whole entry, looked up): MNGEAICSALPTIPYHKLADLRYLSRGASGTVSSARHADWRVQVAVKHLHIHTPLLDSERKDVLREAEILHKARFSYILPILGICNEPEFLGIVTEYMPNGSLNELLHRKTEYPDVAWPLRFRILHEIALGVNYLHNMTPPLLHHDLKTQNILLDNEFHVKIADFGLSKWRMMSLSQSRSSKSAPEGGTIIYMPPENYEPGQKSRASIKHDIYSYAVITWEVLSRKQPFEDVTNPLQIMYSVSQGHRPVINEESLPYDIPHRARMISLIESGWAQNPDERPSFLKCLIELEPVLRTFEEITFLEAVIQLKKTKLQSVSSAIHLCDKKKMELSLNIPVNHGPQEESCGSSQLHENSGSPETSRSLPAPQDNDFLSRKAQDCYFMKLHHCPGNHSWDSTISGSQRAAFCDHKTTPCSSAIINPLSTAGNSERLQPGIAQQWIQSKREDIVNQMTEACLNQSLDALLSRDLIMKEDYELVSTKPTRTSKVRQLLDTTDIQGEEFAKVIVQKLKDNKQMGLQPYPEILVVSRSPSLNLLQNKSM
UniProt P9WI81, sequence (whole entry, looked up): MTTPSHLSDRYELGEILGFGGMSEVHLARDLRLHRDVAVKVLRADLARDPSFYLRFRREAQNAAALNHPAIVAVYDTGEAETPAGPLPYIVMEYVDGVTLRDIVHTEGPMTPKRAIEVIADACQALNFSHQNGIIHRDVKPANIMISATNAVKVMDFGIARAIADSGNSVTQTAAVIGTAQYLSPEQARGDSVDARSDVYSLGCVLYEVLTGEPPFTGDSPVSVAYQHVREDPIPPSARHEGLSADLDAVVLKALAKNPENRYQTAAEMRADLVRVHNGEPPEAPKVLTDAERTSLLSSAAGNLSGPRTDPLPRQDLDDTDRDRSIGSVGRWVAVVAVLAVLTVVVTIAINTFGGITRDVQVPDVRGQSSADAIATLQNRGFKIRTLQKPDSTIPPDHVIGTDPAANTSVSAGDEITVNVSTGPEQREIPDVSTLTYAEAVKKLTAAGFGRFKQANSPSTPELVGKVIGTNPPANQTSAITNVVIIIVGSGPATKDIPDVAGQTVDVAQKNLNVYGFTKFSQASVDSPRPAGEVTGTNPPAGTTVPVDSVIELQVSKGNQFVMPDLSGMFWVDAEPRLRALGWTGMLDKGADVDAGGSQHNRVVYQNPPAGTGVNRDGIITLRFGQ
UniProt P35372, sequence (whole entry, looked up): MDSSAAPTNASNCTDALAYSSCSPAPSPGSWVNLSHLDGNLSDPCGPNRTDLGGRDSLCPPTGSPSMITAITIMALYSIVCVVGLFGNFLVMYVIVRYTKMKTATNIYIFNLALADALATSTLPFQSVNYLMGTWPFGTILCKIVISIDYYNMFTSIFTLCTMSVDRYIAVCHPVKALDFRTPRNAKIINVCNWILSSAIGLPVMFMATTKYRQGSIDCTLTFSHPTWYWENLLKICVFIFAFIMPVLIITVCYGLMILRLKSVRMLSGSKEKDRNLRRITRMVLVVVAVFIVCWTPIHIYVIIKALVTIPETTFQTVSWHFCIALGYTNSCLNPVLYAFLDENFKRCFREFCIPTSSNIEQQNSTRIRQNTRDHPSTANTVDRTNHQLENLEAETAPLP
UniProt P61075, sequence (whole entry, looked up): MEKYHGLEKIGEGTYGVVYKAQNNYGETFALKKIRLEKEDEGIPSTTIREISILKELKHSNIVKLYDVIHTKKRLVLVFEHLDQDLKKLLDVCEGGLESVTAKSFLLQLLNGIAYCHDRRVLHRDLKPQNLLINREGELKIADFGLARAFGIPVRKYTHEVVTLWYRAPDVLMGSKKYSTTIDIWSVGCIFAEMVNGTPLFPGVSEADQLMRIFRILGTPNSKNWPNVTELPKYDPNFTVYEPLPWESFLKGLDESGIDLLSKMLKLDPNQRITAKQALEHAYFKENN

Series 1
Host: mouse
Medium: microsomes or S9
Concentration: 2 µM
Time: 0.5 h
Endpoint: remaining compound
SMILES = Cc1ccc(/N=C/N(C)/C=N/c2ccc(C)cc2C)c(C)c1; value = 6.15%
SMILES = COc1cccc(Cn2nnc3cc(C(=O)N4CCC5(CC4)OCCO5)ccc32)c1; value = 22%
SMILES = CC(C)n1c(C(=O)NCc2nnc3ccccn23)cc2cc(Cl)ccc21; value = 38.4%

Series 2
SMILES: O=C1CCC(N2Cc3c(ccc4c3OCC43CCN(Cc4ccccc4)CC3)C2=O)C(=O)N1 (centres unmarked)
Endpoint: inhibition
KCNH2: Voltage-gated inwardly rectifying potassium channel KCNH2 (KCNH2, Homo sapiens, UniProt Q12809)
UniProt Q12809, sequence (whole entry, looked up): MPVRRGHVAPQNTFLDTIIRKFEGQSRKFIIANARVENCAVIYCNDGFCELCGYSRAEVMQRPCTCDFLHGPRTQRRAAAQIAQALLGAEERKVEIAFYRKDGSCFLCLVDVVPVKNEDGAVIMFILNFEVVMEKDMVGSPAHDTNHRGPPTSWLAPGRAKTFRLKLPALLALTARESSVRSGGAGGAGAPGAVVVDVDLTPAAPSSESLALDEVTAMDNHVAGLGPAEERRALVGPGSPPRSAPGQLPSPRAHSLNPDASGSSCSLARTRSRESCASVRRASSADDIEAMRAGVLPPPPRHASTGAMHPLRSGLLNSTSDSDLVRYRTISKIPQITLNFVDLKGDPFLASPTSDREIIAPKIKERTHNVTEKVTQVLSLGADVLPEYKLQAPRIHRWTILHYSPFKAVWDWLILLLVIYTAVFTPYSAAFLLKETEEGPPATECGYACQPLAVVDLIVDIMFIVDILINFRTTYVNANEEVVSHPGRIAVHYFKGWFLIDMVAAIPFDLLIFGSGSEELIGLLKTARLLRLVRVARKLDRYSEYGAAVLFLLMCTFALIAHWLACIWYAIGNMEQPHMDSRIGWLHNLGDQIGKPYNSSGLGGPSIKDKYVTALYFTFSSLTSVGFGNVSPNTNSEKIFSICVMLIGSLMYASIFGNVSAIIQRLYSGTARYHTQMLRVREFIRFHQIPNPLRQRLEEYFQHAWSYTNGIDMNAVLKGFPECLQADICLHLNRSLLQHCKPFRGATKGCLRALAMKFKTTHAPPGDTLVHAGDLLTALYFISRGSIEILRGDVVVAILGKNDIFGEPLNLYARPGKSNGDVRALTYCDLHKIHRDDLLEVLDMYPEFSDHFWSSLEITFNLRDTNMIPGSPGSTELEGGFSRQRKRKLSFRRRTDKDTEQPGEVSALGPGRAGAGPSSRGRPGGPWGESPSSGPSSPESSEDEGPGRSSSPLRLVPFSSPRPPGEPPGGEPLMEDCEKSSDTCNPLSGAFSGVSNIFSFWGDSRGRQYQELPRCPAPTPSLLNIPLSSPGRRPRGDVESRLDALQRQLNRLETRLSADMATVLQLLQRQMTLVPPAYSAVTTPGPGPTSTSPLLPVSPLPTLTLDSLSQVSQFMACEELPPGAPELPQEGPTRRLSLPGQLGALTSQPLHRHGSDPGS
target = Protein cereblon (CRBN, Homo sapiens, UniProt Q96SW2); test = cell-free assay, TR-FRET; conditions = 1.52 µM; value = 0.7% and 2.6%
target = KCNH2; test = hERG current, voltage clamp; system = HEK293 stably expressing hERG; conditions = 1 µM; value = 84.1% and 91.3% and 85.6%
target = KCNH2; test = hERG current, voltage clamp; system = HEK293 stably expressing hERG; conditions = 0.001 µM; value = -0.07% and 0.08% and 1.67%

Mixed results
Structure (SMILES) = CN(C(=O)c1ccccc1)c1cc(N(C)c2ccc3c(c2)CCc2ccc(C(=O)NCCN4CCOCC4)cc2C3=O)ccc1F; tested on = Cyclin-dependent kinase 2 homolog (CRK2, Plasmodium falciparum, UniProt P61075); test = cell-free assay, competition with immobilised ligand; conditions = 1 µM; endpoint = remaining binding; value = 100%
Structure (SMILES) = CC(C)(C)c1cc(C=C(C#N)C#N)cc(Br)c1O; tested on = Receptor-interacting serine/threonine-protein kinase 2 (RIPK2, Homo sapiens, UniProt O43353); test = enzyme activity, inhibitor, radiometric; endpoint = IC50; value = 522 nM
Structure (SMILES) = CS(=O)(=O)N1CCCC(NC(=O)[C@H](CCC2CCCCC2)NC(=O)c2ccc(CNC(=O)c3cnc4ccccn34)cc2)C1 (some centres unmarked); tested on = Serine/threonine-protein kinase PknB (pknB, Mycobacterium tuberculosis, UniProt P9WI81); test = cell-free assay, competition with immobilised ligand; conditions = 0.1 µM; endpoint = remaining binding; value = 100%
Structure (SMILES) = O=C(O)[C@H]1[C@H](Cn2nnc3ccccc3c2=O)CC[C@@H]1C(=O)c1ccc(OCCC2CCOCC2)cc1; tested on = Mu-type opioid receptor (OPRM1, Homo sapiens, UniProt P35372); test = ligand displacement; conditions = 10 µM; endpoint = inhibition; value = -9.72%
Structure (SMILES) = CN[C@@H]1C[C@H]2O[C@@](C)([C@@H]1OC)n1c3ccccc3c3c4c(c5c6ccccc6n2c5c31)C(=O)NC4; tested on = normal adjacent epithelium patient-derived organoids; test = CellTiter-Glo; conditions = 1 µM, mean of five organoid lines; how to read = relative to: DMSO; endpoint = viability; value = 2%
